Experimental data from different studies.
Compare with care: the assays were run in different laboratories. Values joined by “and” are separate records of one study, mostly repeats; a detail may differ. Numbers after ± are the reported error. In brackets after ≈: the same amount, converted by molar mass.

Cc1cccc(O[C@H]2CCC[C@@H](C(C)CNCc3ccncc3)C2)c1 (relative stereo)
AUC(0-inf) (C57BL/6 mouse female, brain; oral, 25 mg/kg): 8820 ng·h/mL

CC(=O)N[C@H](C)c1cc(Cl)ccc1Cn1c(=S)[nH]c(=O)c2[nH]ccc21
exposure ratio (dog, both sexes, plasma; oral, 100 mg/kg/day; relative to: dog over human 5 mg): 0.7

COC(=O)C(c1ccccc1Cl)N1CCC(SCC(=O)c2cccc(OC)c2)C(=CC(=O)O)C1 (mixture of isomers)
deviation from nominal (HPLC-MS/MS; feline EDTA plasma; 100 ng/mL, 6 h, -80 °C, storage stability): 1%

CCC(=O)N[C@@H](C)C(=O)OCC(=O)N[C@@H](C)C(=O)O
depolymerization half-life (water; pH 3, 37 °C): 1300 h

O=C1C2=C(CCN(Cc3ccccc3)C2)N2CCN=C2N1Cc1ccc(C(F)(F)F)cc1
MRT (female CD-1 mouse, plasma; oral, 50 mg/kg): 3.26 h

[11CH3]Oc1ccc(Cc2ccncc2)nc1-c1cccc(Cl)c1
fraction unbound (ultrafiltration; monkey, plasma): 1.6%

CN1CCC(N[C@@H]2CCc3[nH]c4c(C(N)=O)ccc(-c5ccccc5Cl)c4c3C2)CC1
MRT(0-t) (mouse, plasma; intravenous, 2 mg/kg): 4.15 h

Cc1ccc(/N=N/c2c(O)ccc3ccccc23)c(C)c1
measured concentration (rat whole blood extract; 0.5 µg/L, 30 days, -20 °C, long-term storage): 0.492 µg/L

CC[C@H](C)[C@H](NC(=O)[C@H](Cc1ccccc1)NC(=O)[C@H](CC(=O)O)NC(=O)[C@@H]1CCCCNC(=O)NCC[C@H](NC(=O)[C@H](CC(C)C)NC(=O)[C@H](CCCNC(=N)N)NC(=O)[C@H](CCSC)NC(=O)[C@H](C)N)C(=O)N[C@@H](CCCCN)C(=O)N[C@@H](Cc2ccccc2)C(=O)N[C@@H](Cc2ccccc2)C(=O)N1)C(=O)N[C@@H](CC(C)C)C(=O)N[C@@H](CCC(N)=O)C(=O)N[C@@H](CCCNC(=N)N)C(=O)N[C@@H](CCCCN)C(=O)N[C@@H](CCCCN)C(=O)O
helicity (circular dichroism; 20% TFE in PBS; 200 µM, pH 7.4, 25 °C): 28.3%

COc1ccc2cc(-c3ccc(-c4ccc(C)cn4)nc3)oc2c1
fluorescence lifetime (TCSPC; EtOH): 2.02 ns

CCN(CC)CC#CCNc1ccnc2cc(Cl)ccc12
parent compound remaining (monkey hepatocytes; 10 µM, 30 min): 39%

CC(C)(Sc1cc[n+]([O-])cc1-c1ccc(C#N)c2ccccc12)C(=O)OC1OC(C(=O)O)C(O)C(O)C1O (stereo not drawn)
Cmax increase (adult men, plasma; oral, 15 mg verinurad, mild renal impairment; relative to: normal renal function): 58%

CC[C@H](C)[C@H](NC(=O)[C@@H]1CCCN1C(=O)CNC(=O)[C@H](Cc1ccccc1)NC(=O)[C@H](CC(N)=O)NC(=O)[C@H](CC(N)=O)NC(=O)[C@H](CO)NC(=O)[C@H](CO)NC(=O)[C@H](Cc1c[nH]cn1)NC(=O)[C@@H](NC(=O)[C@H](CC(C)C)NC(=O)[C@H](Cc1ccccc1)NC(=O)[C@H](CC(N)=O)NC(=O)[C@H](C)NC(=O)[C@H](CC(C)C)NC(=O)[C@H](CCCNC(=N)N)NC(=O)[C@H](CCC(N)=O)NC(=O)[C@@H](NC(=O)[C@H](C)NC(=O)[C@@H]1CSSC[C@H](NC(=O)[C@@H](N)CCCCN)C(=O)N[C@@H](CC(N)=O)C(=O)N[C@@H]([C@@H](C)O)C(=O)N[C@@H](C)C(=O)N[C@@H]([C@@H](C)O)C(=O)N1)[C@@H](C)O)C(C)C)C(=O)N[C@@H](CC(C)C)C(=O)N1CCC[C@H]1C(=O)N1CCC[C@H]1C(=O)N[C@H](C(=O)N[C@@H](CC(N)=O)C(=O)N[C@H](C(=O)NCC(=O)N[C@@H](CO)C(=O)N[C@@H](CC(N)=O)C(=O)N[C@H](C(=O)N[C@@H](Cc1ccc(O)cc1)C(N)=O)[C@@H](C)O)C(C)C)[C@@H](C)O
loss from soluble fraction (PBS; 500 µM, 24 h, pH 7.4, with: equimolar insulin; relative to: time zero): > 37%

[64Cu+2].c1ccc(CNCc2ccc(CN3CCCN4CCNCCCN(CC4)CC3)cc2)nc1
tissue uptake (CXCR4; NOD/SCID mouse, U87 and U87-stb-CXCR4 xenografts, bladder; iv, 90 min, no blocking dose, ex vivo): 1.11 ± 0.07 %ID/g

CN1CCC[C@]1(C)/C=C/S(=O)(=O)NC(=O)Nc1c2c(cc3c1CCC3)CCC2
Cmax after second dose (human, plasma; oral, 50 mg twice daily, day 14, multiple ascending dose): 6700 ng/mL

CCCCCCCCCC(O)CC(=O)CCc1ccc(O)c(OC)c1 (stereo not drawn)
elimination half-life (healthy Indonesian humans, plasma; oral, 2 g red ginger suspension, single dose): 5.6 h

CCCCCCCCCCCCCCCC(=O)N[C@@H](CCCCN)C(=O)N[C@@H](CCCCN)C(=O)N[C@@H](CO)C(=O)N[C@@H](CCCNC(=N)N)C(=O)N[C@@H](C)C(=O)N[C@@H](CC(C)C)C(=O)N[C@@H](Cc1ccccc1)C(N)=O
prothrombin time (cynomolgus monkey, male; 30 mg/kg, day 5): 12.5 ± 0.6 s

Cc1ccc2oc(-c3c4c(N)n[nH]c(=O)c4nn3-c3ccc(NC(=O)/C=C/CN(C)C)cc3)c(C)c2c1
MRT (mouse, plasma; intravenous, 1 mg/kg): 1.36 h

COc1cc(C2CCC(c3[nH]c(=O)[nH]c(=O)c3Cc3cccc(C(F)(F)F)c3)CC2)ccc1O (stereo not drawn)
share of plasma radioactivity (14C label; cynomolgus monkey; oral, 80 mg/kg): ≥ 10%

Cc1ccc(OCC(=O)O)cc1
AUC(0-last) (Sprague-Dawley rat, female, plasma; oral gavage, 30 mg/kg of parent drug): 25900 ± 6260 ng·h/mL

CCCC1OC2CC3C4CCC5=CC(=O)C=CC5(C)C4C(O)CC3(C)C2(C(=O)COC(=O)C(C)N)O1 (stereo not drawn)
hydrolysed conjugate (rat lung homogenate; 200 µg/mL, 12 h): 53.9%

N=C(N)NCCC[C@@H]1NC(=O)[C@H](Cc2c[nH]c3ccccc23)NC(=O)[C@@H](CC2CCCCC2)NC(=O)[C@@H]2CCCN2C(=O)[C@@H](NC(=O)CCc2ccccc2)CCCNC1=O
oral bioavailability (C57BL/6J mouse, plasma; oral, 1 mg/kg single dose; relative to: intravenous AUC): 23% and 22.6% and ~20%

CC[C@H](C)[C@H](NC(=O)[C@H](Cc1ccccc1)NC(=O)[C@H](CC(=O)O)NC(=O)[C@H](CCCCN)NC(=O)[C@H](Cc1ccccc1)NC(=O)[C@H](Cc1ccccc1)NC(=O)[C@H](CCCCN)NC(=O)[C@H](CCN)NC(=O)[C@H](CC(C)C)NC(=O)[C@H](CCCNC(=N)N)NC(=O)[C@H](CCSC)NC(=O)[C@H](C)N)C(=O)N[C@@H](CC(C)C)C(=O)N[C@@H](CCC(N)=O)C(=O)N[C@@H](CCCNC(=N)N)C(=O)N[C@@H](CCCCN)C(=O)N[C@@H](CCCCN)C(=O)O
helicity (circular dichroism; 20% TFE in PBS; 200 µM, pH 7.4, 25 °C): 15.4%

C[C@H](NC(=O)[C@H](C)NC(=O)[C@H](C)NC(=O)[C@H](CCCNC(=N)N)NC(=O)[C@H](CCCNC(=N)N)NC(=O)[C@H](C)NC(=O)[C@H](C)NC(=O)[C@H](C)NC(=O)[C@H](C)NC(=O)[C@H](CCCNC(=N)N)NC(=O)[C@H](CCCNC(=N)N)NC(=O)[C@H](C)NC(=O)[C@H](C)NC(=O)[C@H](C)NC(=O)[C@H](C)NC(=O)[C@H](CCCNC(=N)N)NC(=O)[C@H](CCCNC(=N)N)NC(=O)c1ccc2c(c1)C(=O)OC21c2ccc(O)cc2Oc2cc(O)ccc21)C(=O)N[C@@H](C)C(=O)N[C@@H](CCCNC(=N)N)C(=O)N[C@@H](CCCNC(=N)N)C(=O)O
cartilage uptake ratio (bovine, healthy cartilage explants; 30 µM, 24 h, 37 °C, 5-FAM labelled; relative to: tissue over bath concentration): ~50

Cn1c2ccc([N+](=O)[O-])cc2c(=O)n1Cc1ccccc1
CC50 (resazurin; peritoneal macrophages, BALB/c mice; 48 h, 10% FBS): 4 ± 0.9 µM

NS(=O)(=O)c1ccc(-n2cc(CNc3ccccc3Cl)c(-c3ccc(OCc4ccccc4)cc3)n2)cc1
ulcer severity index (Wistar rat, gastric mucosa; oral, 60 mg/kg, 17 h; relative to: vehicle): 0.64 ± 0.43

O=C([O-])CN1CCN(CC(=O)[O-])CCN(CC(=O)NCC2CCC(C(=O)NC(Cc3ccc4ccccc4c3)C(=O)NCCCCC(NC(=O)NC(CCC(=O)O)C(=O)O)C(=O)O)CC2)CCN(CC(=O)[O-])CC1.[44Sc+3] (stereo not drawn)
organ absorbed dose (PET/CT dosimetry, OLINDA/EXM; human, spleen): 0.163 mSv/MBq and 0.064 mSv/MBq and 0.236 mSv/MBq

Cc1ccc(N(CCc2nnc(S)o2)S(=O)(=O)c2ccc(C)cc2)cc1
ulcer index (rat; 100 mg/kg): 40

C[C@H](NC(=O)[C@H](CCCNC(=N)N)N(C)C(=O)[C@@H]1CCCN1C(=O)[C@H](CCCNC(=N)N)NC(=O)CNC(=O)c1ccc2c(c1)C1(OC2=O)c2ccc(O)cc2Oc2cc(O)ccc21)C(=O)N[C@@H](Cc1ccccc1)C(=O)N[C@H](C(=O)N[C@@H](Cc1ccccc1)C(=O)N(C)CC(=O)N[C@@H](CCC(=O)O)C(=O)NCC(N)=O)[C@@H](C)O
9-mer fragment (CE-LIF; HeLa cytosolic lysate; 60 min, sarcosine-glutamate bond hydrolysis; relative to: total peptide): 40%

CSc1cc(C)nc(SC)c1NC(=O)CN1CCN(CCSc2nc3ccccc3[nH]2)CC1.Cl
tissue concentration (female Crl:CD1 (ICR) mice, olfactory bulb; intranasal, 10 µL solution daily, 120 min, 7 days dosing): 0 ng/g

O=c1c2ccccc2[se]n1CCCCCCn1[se]c2ccccc2c1=O
solubility (1% Soluplus in water; 24 h, 25 °C, 10 mg/mL): 167 ± 26 µg/mL (≈ 349 µM)

CONC(=O)/C=C/c1cccc(S(=O)(=O)Nc2ccccc2)c1
AUC(0-inf) (patients with mild liver dysfunction, plasma; intravenous, 400 mg/m^2 belinostat, single 30 min infusion, cycle 1 day -7, mean): 8050 ng·h/mL

O=C([O-])CN1CCN(CC(=O)[O-])CCN(CC(=O)NC[C@H]2CC[C@H](C(=O)N[C@H](Cc3cnc4ccccc4c3)C(=O)NCCCC[C@H](NC(=O)N[C@@H](CCC(=O)O)C(=O)O)C(=O)O)CC2)CCN(CC(=O)[O-])CC1.[64Cu+2]
absorbed dose (PET/CT dosimetry OLINDA/EXM; healthy volunteers, small intestine; up to 24 h post-injection): 0.031 mGy/MBq

CC(C)c1cnc(-c2cc(Cl)ccc2F)cc1Nc1ccncc1C(=O)NC(CO)CO
patients with treatment-related adverse event (monotherapy, item: fatigue; human patients; oral, dose not given, grade 3, phase I A): 2.4%

Cn1c(=O)oc2ccc(-c3ccc(CC(C#N)NC(=O)C4CNCCCO4)c(F)c3)cc21 (stereo not drawn)
subjects with TEAE (item: macule; human; 80 mg single dose, fasted): 16.7%

COc1cc(F)c(C(C)C)cc1C1=C(CN2C(=O)O[C@H](c3cc(C(F)(F)F)cc(C(F)(F)F)c3)[C@@H]2C)CC(C)(C)CC1
Vd/F per body weight (non-compartmental analysis; healthy male subjects, plasma; oral, 25 mg single dose): 19.8 L/kg

COCC1CN(C2CCN(c3cc(OC)c(Nc4ncc(Br)c(Nc5ccc6c(c5P(C)(C)=O)OCCO6)n4)cc3C)CC2)C1
accumulation ratio of Cmax (human, plasma; oral, 10 to 150 mg multiple doses, 21 days): 1.7 to 4.1

O=C(CCc1ccc(CNC(C(=O)OC2CCCC2)C2CCCCC2)cn1)NO (stereo not drawn)
Vz/F (human; oral, 20 mg, single dose, geometric mean): 245 L

COc1ccc(/C=C/C2=[N+]3C(=C(CO)c4c(C)cc(/C=C/c5ccc(OC)cc5)n4[B-]3(F)F)C(C)=C2)cc1
photostability (DMSO/methanol 1:1; 1 h, with: 645 nm light, 9.00 J/cm2): unstable
